Published values of several laboratories.
Lines come from different studies, so protocols differ.
Route: oral

With `O=C(C1CCN(c2nnnn2-c2ccccc2)CC1)N1CCCc2ccccc21` the bioavailability was less than 1% (male Sprague-Dawley rat, plasma; 5 mg/kg).
`OC1(C(F)(F)F)CCN(c2nc(Nc3ccnc(C(F)(F)F)c3)nc(-c3cccc(C(F)(F)F)n3)n2)C1` (stereo not drawn) gave a bioavailability of 168% (Sprague-Dawley rat, plasma; 20 mg/kg).
The bioavailability of `Nc1ccc(-c2ccc3ncc4c(=O)[nH]c(=O)n(-c5cccc(C(F)(F)F)c5)c4c3n2)cn1` is reported as 12.2% (male Sprague-Dawley rat, plasma; 4 mg/kg).
For `CC12CC3CC(C)(C1)CC(NC(=O)Nc1ccc(C(=O)N4CCCC(C(N)=O)C4)cc1)(C3)C2` (stereo not drawn), the bioavailability was 3.1% (Sprague-Dawley rat, plasma; 10 mg/kg).
The bioavailability of `Nc1nc(Cl)nc2c1ncn2Cc1cc(OCC(F)F)cc(OC(F)F)c1` is reported as 100% (Sprague-Dawley rat, plasma; 5 mg/kg).
`COc1ccc(COc2c(OC)ccc3c2C[C@@H](C(=O)O)N(c2nc4ccc(F)cc4o2)C3)cc1` gave a bioavailability of 22% (male Sprague-Dawley rat, plasma; 10 mg/kg).
With `Cc1ccc(OCC(=O)N(Cc2cccs2)c2ccn[nH]2)cc1` the bioavailability was 0.09% (male Sprague-Dawley rat, plasma; 30 mg/kg, single dose).
With `N#Cc1cnc2cc(OCC3CCNCC3)c(F)cc2c1Nc1cc(F)c(OCc2cccc(Cl)n2)cc1Cl` the bioavailability was 100% (male Sprague-Dawley rat, plasma; 300 mg/kg).
`Cc1cc(N2CCC(C#N)(C3(C)CC3)C2=O)cc(C(=O)NCc2cc(F)cc(-c3cnn(C)c3)c2)n1` (racemic) gave a bioavailability of 37% (male Sprague-Dawley rat, plasma; 3 mg/kg).
With `COc1ccc(COc2c(OC)ccc3c2C[C@@H](C(=O)O)N(c2nc4ccc(F)cc4o2)C3)cn1` the bioavailability was 45% (male Sprague-Dawley rat, plasma; 10 mg/kg).
For `C#Cc1cccc(Nc2ncnc3cc(OC)c(OCCCN4CCOCC4)cc23)c1`, the bioavailability was 86.2% (Sprague-Dawley rat, plasma; 40 mg/kg).
`CC1(C)CC[C@]2(C(=O)O[C@@H]3O[C@H](CO[C@@H]4O[C@H](CO)[C@@H](O)[C@H](O)[C@H]4O)[C@@H](O)[C@H](O)[C@H]3O)CC[C@]3(C)C(=CC[C@@H]4[C@@]5(C)CC[C@H](O[C@@H]6OC[C@H](O)[C@H](O)[C@H]6O)[C@@](C)(CO)[C@@H]5CC[C@]43C)[C@@H]2C1` gave a bioavailability of 0.19% (Sprague-Dawley rat, plasma; 150 mg/kg).
For `C=C(C)C(=O)Nc1ccc(-c2c(-c3ccc(Oc4nccc(C)n4)cc3)c3c(N)ncnc3n2C)cc1`, the bioavailability was 17% (Sprague-Dawley rat, plasma).
The bioavailability of `Cc1ncnc(C)c1-c1ccc(C(=O)N2CC[C@H](C(=O)Nc3cc(F)c(F)c(F)c3)C2)[nH]1` is reported as 79% (male Sprague-Dawley rat, plasma; 2 mg/kg).
For `NC(COc1ccccc1C(F)(F)F)c1ccccc1` (stereo not drawn), the bioavailability was 38% (male Sprague-Dawley rat, serum; 25 mg/kg).

A few entries again:
For `C#Cc1cccc(Nc2ncnc3cc(OC)c(OCCCN4CCOCC4)cc23)c1`, the bioavailability was 86.2% (Sprague-Dawley rat, plasma; 40 mg/kg).
